Published values from different studies.
Each line is one published result; not all experiments were run side by side. “And” joins repeats or separate records; there may be more than shown. ± gives the spread as reported.

Structure (SMILES) | target or system | assay | system | setting | scale | endpoint | value
CCOc1cncc(-c2ccc(NC(=O)C3(c4ccnc(NS(=O)(=O)C5CC5)n4)CCOCC3)nc2)n1 | OVCAR-4 | cell proliferation, CellTiter-Glo |  | 72 h |  | IC50 | 5.83 µM
O=C(C[Se]C(=O)c1ccccc1Nc1cccc(C(F)(F)F)c1)Nc1cccc(C(F)(F)F)c1 | NCI60 breast subpanel | NCI60 five-dose screen |  |  |  | GI50 | 1.68 µM
Cn1c(=O)n(C2CCC(=O)NC2=O)c2ccc(C3CCN(CC(=O)Nc4cccc(CS(=O)(=O)N5CC[C@H](Nc6cccc(-c7sc(C(=O)O)c(OCC(=O)O)c7Cl)c6)CC5(C)C)c4)CC3)cc21 (stereo partly drawn) | B16-F10 | HTRF, measured: phospho-STAT1 Tyr701 |  | 0.37 µM, with: IFN-γ | reference: DMSO | fold change | 5.83 and 5.5 and 5.52 and 5.63 and 6.05 and 5.23
CCN(C(=O)c1cc(F)ccc1Oc1nncnc1N1CCC2(C1)CN([C@H](CCCN(C)CCOC)C(C)C)C2)C(C)C | peripheral blood mononuclear cells |  |  | 168 h |  | GI50 | > 10 µM
CC(C)(C)c1cc(-c2ccc3cc4ccccc4nc3n2)nc(-c2ccc3cc4ccccc4nc3n2)c1.Cc1ccncc1.[Cl-].[Cl-].[Ru+2].c1ccc2cc3nc4c5cccnc5c5ncccc5c4nc3cc2c1 | B16-F10 | resazurin |  | with: light 733 nm, 100 J/cm2 | reference: dark EC50 over light EC50 | phototoxicity index | 4
C=CC(=O)N1CC2C(=O)N(CCN(C)C)c3c(c4cc(Cl)c(-c5c(O)cccc5F)nc4n(-c4c(C)ccnc4C(C)C)c3=O)N2CC1C (stereo not drawn) | NCI-H358 | Western blot |  | 1 nM, 4 h |  | p-AKT/AKT ratio | decreased
CNS(=O)(=O)Nc1nccc(Cc2c(C)c3ccc(Oc4ncccc4F)cc3oc2=O)c1F | KMM-1 | cell viability |  | 7 days |  | IC50 | 0.0113 µM
CN1CCCNC(=O)c2cccc(c2)C(=O)NCCCN(C)CCCNc2cccc3c2C(=O)c2cccc(c2C3=O)NCCC1 | SAS | RNA-Seq, measured: BIN3 mRNA |  | 1 µM, 6 h | reference: untreated cells | log2 fold change | -0.703
CC(C)c1ccc(N(C)c2ccc3c(c2)OCC[C@H]3CNc2cnccc2C(=O)O)cc1 | AZ-521 | cell viability, CellTiter-Glo |  | 7 days |  | IC50 | 0.00419 µM
O=C(C[Se]C(=O)c1cccnc1Nc1cccc(C(F)(F)F)c1)Nc1cccc(C(F)(F)F)c1 | NCI60 breast subpanel | NCI60 five-dose screen |  |  |  | GI50 | 2.04 µM
COc1ccc(NC(=O)c2ccc3[nH]c(-c4ccc(N(C)C)cc4)nc3c2)cn1 | HCT116 | IncuCyte |  | concentration not given, 4 h |  | dead cell to confluence ratio | 4.54 and 1.42 and 5.1
Cc1ncsc1-c1ccc(C(C)NC(=O)C2CC(O)CN2C(=O)C(NC(=O)CCCCCCCCCCN2CCCC(Nc3ncc(Cl)c(Nc4ccccc4S(=O)(=O)C(C)C)n3)C2)C(C)(C)C)cc1 (stereo not drawn) | 22Rv1 | RNA-seq, measured: SLITRK3 mRNA |  | concentration not given | reference: DMSO | log2 fold change | -1.18
COC1CN([C@H]2CC[C@H]([C@@]3(C)Oc4c(Cl)cc(C(=O)NCc5c(SC)cc(C)[nH]c5=O)c(C)c4O3)CC2)C1 |  | RNA-seq, measured: CDC42BPA | human, whole blood | dose not given, 24 h | reference: pretreatment baseline | log2 fold change | 1.05
Cc1nc(Nc2ncc(C(=O)Nc3c(C)cccc3Cl)s2)cc(N2CCN(C(=O)CN)CC2)n1 | KU812 | flow cytometry |  | concentration not given, 6 h |  | late apoptotic cells | 10.3% and 8.56% and 9.96%
COC(=O)[C@H](C)NC(=O)[C@H](C)NC(=O)c1csc(-c2cccnc2)n1 | OCI | cell viability |  |  |  | EC50 | 7.2 µM
CCN(CC)CC(=O)Nc1cccc(-n2cc(-c3ccc4ccc(-c5cn(-c6cccc(NC(=O)CN(CC)CC)c6)nn5)cc4c3)nn2)c1 | RCC4 | PCR angiogenesis array, measured: ID1 |  | 5 x IC50, 2 h, normoxia | reference: untreated | fold regulation | 2.47
O=C(Nc1nnc2c1c(-c1ccc(Cl)cc1)nc1sc(=Cc3ccco3)c(=O)n12)c1ccccc1 (mixture of isomers) | OVCAR-4 | SRB |  | 10 µM, NCI60 single-dose screen | reference: untreated | cell growth | 50.3%
COC(=O)c1cc(NC2=NC(=O)C(=Cc3ccc(C)cc3)S2)ccc1OC(C)=O | MCF7 | GC-MS, measured: Oleic acid |  | 1 µM | reference: DMSO | metabolite level | 0.45 fold change
COc1ccc(NC(=O)c2c(Nc3ccccc3)sc(C(=O)N/N=C/c3ccc(OC)c(OC)c3)c2NC(C)=O)cc1 | HCT-116 | cell growth or viability, SRB |  | 10 nM, 48 h |  | viability | 81.3%
COc1ccccc1-c1ccncc1C(=O)Nc1nnc(OCc2ccc(Cl)cc2)s1 | MDA-MB-231 |  |  | 3 µM, single replicate |  | colony count | 23 and 32 and 35 and 21
O=C(NCc1cc(F)cc(F)c1)[C@@]1(O)CCN(c2ccc3[nH]ccc3c2)C1=O | PDX-derived kidney tumour cells | colony formation, inhibitor, soft agar clonogenic |  | 8-13 days |  | maximal inhibition | 53%
CC(C)(C)c1cc(-c2ccc3cccnc3n2)nc(-c2ccc3cccnc3n2)c1.COc1ccncc1.[Cl-].[Cl-].[Ru+2].c1ccc2cc3nc4c5cccnc5c5ncccc5c4nc3cc2c1 | B16-F10 | cytotoxicity, resazurin |  | dark |  | EC50 | 92.8 ± 6 µM
C=CC(=O)N1CCCC(n2c(=O)c3ncccc3n(Cc3ccc(Oc4ccccc4)cc3)c2=O)C1 (stereo not drawn) | Rec1 | measured: IGHV4-39 |  | concentration not given | reference: untreated | log2 fold change | -1.22
[Cl-].[Cl-].[Ru+2].c1cc(-c2ccc3cccnc3n2)nc(-c2ccc3cccnc3n2)c1.c1ccc2cc3nc4c5cccnc5c5ncccc5c4nc3cc2c1 | B16-F10 | cytotoxicity, resazurin |  | dark |  | EC50 | 65 µM
[BH3-][P+]1(c2ccccc2)CCCCC1 | HCT-116 | Annexin V-FITC/PI flow cytometry |  | IC50, 72 h |  | late apoptotic cells | 3.15%
Cn1ncc2cc(-c3cncc(Cl)c3N3CCC4(CCNC4=O)CC3)ccc21 | LS174T | gene expression, microarray, measured: CXCR4 mRNA |  | concentration not given, 24 h | reference: untreated cells | log2 fold change | 2.78
COc1cc([C@@H]2O[C@@H](c3cc(OC)c(O[C@@H]4O[C@H](CO)[C@@H](O)[C@H](O)[C@H]4O)c(OC)c3)[C@H](CO)[C@H]2CO)cc(OC)c1O | differentiating 3T3-L1 | Western blot, measured: C/EBPα PPARγ SREBP1c |  | concentration not given, day 2 |  | protein expression | decreased

For quick reference, copied from above:
Structure (SMILES) | target or system | assay | system | setting | scale | endpoint | value
Cc1nc(Nc2ncc(C(=O)Nc3c(C)cccc3Cl)s2)cc(N2CCN(C(=O)CN)CC2)n1 | KU812 | flow cytometry |  | concentration not given, 6 h |  | late apoptotic cells | 10.3% and 8.56% and 9.96%
COc1ccc(NC(=O)c2c(Nc3ccccc3)sc(C(=O)N/N=C/c3ccc(OC)c(OC)c3)c2NC(C)=O)cc1 | HCT-116 | cell growth or viability, SRB |  | 10 nM, 48 h |  | viability | 81.3%
Cc1ncsc1-c1ccc(C(C)NC(=O)C2CC(O)CN2C(=O)C(NC(=O)CCCCCCCCCCN2CCCC(Nc3ncc(Cl)c(Nc4ccccc4S(=O)(=O)C(C)C)n3)C2)C(C)(C)C)cc1 (stereo not drawn) | 22Rv1 | RNA-seq, measured: SLITRK3 mRNA |  | concentration not given | reference: DMSO | log2 fold change | -1.18
CN1CCCNC(=O)c2cccc(c2)C(=O)NCCCN(C)CCCNc2cccc3c2C(=O)c2cccc(c2C3=O)NCCC1 | SAS | RNA-Seq, measured: BIN3 mRNA |  | 1 µM, 6 h | reference: untreated cells | log2 fold change | -0.703
